# Results of several laboratories.
# A part holds a random share of what one study measured. ± gives the spread as reported.
# Chain of UniProt Q09472 (whole entry, unmodified, looked up): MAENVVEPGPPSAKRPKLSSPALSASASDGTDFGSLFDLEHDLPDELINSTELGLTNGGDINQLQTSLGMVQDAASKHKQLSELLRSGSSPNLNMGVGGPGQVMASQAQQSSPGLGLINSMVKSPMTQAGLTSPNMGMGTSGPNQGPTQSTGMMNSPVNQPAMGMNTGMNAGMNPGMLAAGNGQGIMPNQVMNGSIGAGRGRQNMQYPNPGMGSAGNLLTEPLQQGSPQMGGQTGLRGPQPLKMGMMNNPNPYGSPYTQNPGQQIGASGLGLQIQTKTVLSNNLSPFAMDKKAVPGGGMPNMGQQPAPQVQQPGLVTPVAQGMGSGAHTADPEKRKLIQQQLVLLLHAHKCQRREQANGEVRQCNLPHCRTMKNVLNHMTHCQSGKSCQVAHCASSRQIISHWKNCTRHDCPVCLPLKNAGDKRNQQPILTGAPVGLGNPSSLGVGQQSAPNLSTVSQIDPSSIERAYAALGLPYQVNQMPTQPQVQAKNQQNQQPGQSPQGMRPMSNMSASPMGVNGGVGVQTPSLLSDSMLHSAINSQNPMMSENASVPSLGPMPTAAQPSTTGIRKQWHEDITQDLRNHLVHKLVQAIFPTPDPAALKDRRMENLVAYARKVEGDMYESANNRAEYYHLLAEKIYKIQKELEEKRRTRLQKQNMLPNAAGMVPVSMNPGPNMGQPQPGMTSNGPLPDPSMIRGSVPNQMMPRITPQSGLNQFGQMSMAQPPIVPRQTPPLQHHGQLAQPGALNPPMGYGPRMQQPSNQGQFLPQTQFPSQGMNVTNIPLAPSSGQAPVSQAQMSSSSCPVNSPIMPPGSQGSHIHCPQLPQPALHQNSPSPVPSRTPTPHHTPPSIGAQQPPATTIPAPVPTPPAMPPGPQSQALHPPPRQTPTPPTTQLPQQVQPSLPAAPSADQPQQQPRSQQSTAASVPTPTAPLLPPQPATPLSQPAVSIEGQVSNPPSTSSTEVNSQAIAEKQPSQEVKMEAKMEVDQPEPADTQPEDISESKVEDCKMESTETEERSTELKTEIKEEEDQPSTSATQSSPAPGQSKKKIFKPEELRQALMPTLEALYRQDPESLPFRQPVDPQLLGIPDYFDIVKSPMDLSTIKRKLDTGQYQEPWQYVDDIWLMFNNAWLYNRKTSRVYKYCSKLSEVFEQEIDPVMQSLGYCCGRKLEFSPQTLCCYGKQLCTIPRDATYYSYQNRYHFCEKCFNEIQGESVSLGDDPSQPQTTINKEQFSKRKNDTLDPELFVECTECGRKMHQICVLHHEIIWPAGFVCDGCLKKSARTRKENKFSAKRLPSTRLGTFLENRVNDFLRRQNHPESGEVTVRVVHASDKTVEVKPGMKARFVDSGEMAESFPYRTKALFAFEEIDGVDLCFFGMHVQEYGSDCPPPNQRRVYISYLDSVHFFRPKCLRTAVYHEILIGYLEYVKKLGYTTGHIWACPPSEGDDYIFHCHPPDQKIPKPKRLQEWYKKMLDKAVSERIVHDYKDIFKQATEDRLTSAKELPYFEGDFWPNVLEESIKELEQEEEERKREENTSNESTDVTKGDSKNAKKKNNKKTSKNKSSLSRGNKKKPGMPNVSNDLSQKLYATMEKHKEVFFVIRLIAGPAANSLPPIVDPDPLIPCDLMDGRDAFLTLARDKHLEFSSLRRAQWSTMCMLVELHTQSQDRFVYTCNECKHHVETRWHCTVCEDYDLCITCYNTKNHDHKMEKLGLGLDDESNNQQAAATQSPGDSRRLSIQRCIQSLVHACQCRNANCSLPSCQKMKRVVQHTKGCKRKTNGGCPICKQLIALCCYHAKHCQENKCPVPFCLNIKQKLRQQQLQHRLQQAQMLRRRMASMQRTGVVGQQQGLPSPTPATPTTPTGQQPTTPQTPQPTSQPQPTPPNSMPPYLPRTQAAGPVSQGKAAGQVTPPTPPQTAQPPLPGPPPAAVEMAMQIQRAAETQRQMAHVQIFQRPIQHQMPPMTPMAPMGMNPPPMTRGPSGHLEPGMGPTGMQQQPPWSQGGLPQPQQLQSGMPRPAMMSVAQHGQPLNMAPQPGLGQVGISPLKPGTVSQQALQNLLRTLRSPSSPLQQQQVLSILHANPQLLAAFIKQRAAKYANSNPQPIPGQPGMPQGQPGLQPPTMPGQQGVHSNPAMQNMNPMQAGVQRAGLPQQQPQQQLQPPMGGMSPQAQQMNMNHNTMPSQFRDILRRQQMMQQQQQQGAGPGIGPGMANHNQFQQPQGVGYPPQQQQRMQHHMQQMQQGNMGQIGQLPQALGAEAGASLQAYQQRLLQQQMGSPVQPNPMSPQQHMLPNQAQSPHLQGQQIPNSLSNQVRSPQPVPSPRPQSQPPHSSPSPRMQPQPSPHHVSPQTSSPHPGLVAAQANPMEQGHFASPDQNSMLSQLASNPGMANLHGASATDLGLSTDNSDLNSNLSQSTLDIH
# Chain of UniProt P34913 (whole entry, looked up): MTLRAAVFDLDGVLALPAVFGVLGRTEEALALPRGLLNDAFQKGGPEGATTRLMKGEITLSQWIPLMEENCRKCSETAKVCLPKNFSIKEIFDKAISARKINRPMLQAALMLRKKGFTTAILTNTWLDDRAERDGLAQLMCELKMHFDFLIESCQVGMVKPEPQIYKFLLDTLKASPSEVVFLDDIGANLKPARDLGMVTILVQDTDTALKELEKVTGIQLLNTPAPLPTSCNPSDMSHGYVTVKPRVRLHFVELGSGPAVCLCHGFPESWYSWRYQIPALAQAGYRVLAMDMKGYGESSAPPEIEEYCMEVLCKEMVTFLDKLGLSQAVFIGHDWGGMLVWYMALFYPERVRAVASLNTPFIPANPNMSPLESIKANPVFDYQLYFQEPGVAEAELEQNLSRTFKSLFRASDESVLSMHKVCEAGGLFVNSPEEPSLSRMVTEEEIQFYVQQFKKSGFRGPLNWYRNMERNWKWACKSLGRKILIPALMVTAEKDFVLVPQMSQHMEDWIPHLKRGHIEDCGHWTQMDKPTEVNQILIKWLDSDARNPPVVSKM

# Sample 1
# SMILES: Cc1cc(OCc2nnc(SC3CCCC3)n2-c2cccnc2)ccc1-c1ccc(S(C)(=O)=O)cc1
cell line,GI50
MDA-MB-435,1020 nM
SN12C,1130 nM
SK-MEL-28,1680 nM
SK-MEL-5,36.7 nM

# Further values, each from its own experiment
Compound,tested on,test,test system,setting,endpoint,result
N#Cc1ccc(-c2csc(CNC(=O)C34CC(CN(C(=O)COCCF)C3)C4)n2)cc1,,,"Sprague Dawley rats male, plasma","oral, 3 mg/kg",AUC,14 µM·h
CC[C@@H]1C(=O)N(C)c2cnc(Nc3ccc(C(=O)NC4CCN(C)CC4)cc3OC)nc2N1C1CCCC1,"EP300 (Homo sapiens, UniProt Q09472)","thermal stabilisation, thermal shift",,10 µM,ΔTm,0 °C
O=C(Nc1ccc(F)cc1)NC1CCN(c2c(NS(=O)(=O)Cc3ccccc3)c(=O)c2=O)CC1,"EPHX2 (Homo sapiens, UniProt P34913)",,,,IC50,129 ± 15.7 nM
C#Cc1cccc(Nc2ncnc3cc(OCCOC)c(OCCOC)cc23)c1,PC-3,MTT,,"50 µg/mL, RPMI medium with 2% serum",viability,3.73%

# Some of these lines once more (further values, each from its own experiment):
Compound,tested on,test,test system,setting,endpoint,result
CC[C@@H]1C(=O)N(C)c2cnc(Nc3ccc(C(=O)NC4CCN(C)CC4)cc3OC)nc2N1C1CCCC1,"EP300 (Homo sapiens, UniProt Q09472)","thermal stabilisation, thermal shift",,10 µM,ΔTm,0 °C
